Measured values collected from several papers.
A part holds a random share of what one study measured.
UniProt Q13237, sequence (whole entry, looked up): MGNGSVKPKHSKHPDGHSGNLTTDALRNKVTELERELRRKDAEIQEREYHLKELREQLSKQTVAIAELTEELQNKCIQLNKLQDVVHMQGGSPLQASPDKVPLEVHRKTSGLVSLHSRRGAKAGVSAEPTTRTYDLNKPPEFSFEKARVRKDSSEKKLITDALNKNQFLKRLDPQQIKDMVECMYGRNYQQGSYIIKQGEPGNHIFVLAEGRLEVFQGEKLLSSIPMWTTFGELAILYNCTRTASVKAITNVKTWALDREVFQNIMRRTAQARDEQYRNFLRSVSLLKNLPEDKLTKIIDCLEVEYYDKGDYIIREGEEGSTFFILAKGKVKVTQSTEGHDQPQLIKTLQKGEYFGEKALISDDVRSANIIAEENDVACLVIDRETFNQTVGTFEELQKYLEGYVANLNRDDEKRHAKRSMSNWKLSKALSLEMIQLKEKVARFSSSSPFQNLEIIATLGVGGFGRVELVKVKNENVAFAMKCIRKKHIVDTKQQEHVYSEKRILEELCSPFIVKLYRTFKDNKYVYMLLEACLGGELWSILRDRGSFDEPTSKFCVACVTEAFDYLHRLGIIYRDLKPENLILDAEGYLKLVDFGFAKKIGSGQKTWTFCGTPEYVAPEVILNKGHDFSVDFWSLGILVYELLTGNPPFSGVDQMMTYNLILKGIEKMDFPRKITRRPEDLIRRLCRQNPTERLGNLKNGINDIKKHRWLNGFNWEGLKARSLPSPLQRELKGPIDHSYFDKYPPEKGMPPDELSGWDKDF
UniProt Q16832, sequence (whole entry, looked up): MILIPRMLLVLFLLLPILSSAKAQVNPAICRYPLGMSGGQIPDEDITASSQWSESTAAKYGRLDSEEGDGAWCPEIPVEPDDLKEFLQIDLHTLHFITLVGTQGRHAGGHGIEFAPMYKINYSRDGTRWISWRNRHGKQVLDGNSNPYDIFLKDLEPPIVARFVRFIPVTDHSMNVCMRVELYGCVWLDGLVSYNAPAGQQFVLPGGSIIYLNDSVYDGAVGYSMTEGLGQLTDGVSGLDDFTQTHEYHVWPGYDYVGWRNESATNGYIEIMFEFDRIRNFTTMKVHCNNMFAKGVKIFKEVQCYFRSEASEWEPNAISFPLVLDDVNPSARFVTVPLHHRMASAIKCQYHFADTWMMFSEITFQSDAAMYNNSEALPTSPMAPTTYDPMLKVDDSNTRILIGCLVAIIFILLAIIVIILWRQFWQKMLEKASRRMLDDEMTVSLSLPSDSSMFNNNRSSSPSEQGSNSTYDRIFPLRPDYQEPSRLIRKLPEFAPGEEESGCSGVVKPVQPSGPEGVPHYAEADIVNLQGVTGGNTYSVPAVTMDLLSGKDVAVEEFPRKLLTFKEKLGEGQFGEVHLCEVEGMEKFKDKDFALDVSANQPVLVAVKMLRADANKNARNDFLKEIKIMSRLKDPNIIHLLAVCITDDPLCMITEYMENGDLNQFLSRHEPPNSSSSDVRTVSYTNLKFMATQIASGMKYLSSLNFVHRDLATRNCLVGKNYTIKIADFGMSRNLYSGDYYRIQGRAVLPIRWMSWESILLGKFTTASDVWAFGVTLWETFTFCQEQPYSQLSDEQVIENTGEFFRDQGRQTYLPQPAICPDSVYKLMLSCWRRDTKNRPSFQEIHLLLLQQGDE
UniProt Q8IW41, sequence (whole entry, looked up): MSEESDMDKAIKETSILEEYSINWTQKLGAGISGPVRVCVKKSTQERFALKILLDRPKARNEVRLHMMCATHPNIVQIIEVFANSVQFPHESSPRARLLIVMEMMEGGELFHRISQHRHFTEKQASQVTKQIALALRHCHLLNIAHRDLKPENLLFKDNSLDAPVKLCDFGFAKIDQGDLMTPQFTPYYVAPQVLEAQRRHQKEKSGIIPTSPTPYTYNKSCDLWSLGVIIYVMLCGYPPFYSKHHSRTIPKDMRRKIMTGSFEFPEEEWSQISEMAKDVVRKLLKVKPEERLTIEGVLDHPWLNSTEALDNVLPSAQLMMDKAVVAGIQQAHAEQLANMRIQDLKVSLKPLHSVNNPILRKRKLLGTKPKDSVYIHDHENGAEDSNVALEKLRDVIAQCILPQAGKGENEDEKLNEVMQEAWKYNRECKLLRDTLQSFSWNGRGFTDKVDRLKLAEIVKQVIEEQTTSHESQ
UniProt Q14164, sequence (whole entry, looked up): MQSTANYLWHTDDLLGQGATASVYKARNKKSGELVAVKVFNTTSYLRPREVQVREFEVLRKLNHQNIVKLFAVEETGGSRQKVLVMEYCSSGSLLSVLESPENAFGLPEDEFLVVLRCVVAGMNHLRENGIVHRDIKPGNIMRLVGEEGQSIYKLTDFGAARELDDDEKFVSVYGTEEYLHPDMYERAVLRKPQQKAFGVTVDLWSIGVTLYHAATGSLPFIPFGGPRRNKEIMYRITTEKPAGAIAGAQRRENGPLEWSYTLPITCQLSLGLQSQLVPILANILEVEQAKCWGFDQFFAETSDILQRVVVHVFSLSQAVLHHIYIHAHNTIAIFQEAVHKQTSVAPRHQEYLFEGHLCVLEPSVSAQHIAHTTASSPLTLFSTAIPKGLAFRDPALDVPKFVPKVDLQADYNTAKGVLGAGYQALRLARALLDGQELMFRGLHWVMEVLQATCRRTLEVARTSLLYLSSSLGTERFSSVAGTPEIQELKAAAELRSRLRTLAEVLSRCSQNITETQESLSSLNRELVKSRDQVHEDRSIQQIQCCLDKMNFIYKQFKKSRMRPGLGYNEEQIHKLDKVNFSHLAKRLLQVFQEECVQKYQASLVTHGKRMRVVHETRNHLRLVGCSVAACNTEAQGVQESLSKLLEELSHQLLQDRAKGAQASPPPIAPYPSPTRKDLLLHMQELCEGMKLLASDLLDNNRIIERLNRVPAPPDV
UniProt P17948, sequence (whole entry, looked up): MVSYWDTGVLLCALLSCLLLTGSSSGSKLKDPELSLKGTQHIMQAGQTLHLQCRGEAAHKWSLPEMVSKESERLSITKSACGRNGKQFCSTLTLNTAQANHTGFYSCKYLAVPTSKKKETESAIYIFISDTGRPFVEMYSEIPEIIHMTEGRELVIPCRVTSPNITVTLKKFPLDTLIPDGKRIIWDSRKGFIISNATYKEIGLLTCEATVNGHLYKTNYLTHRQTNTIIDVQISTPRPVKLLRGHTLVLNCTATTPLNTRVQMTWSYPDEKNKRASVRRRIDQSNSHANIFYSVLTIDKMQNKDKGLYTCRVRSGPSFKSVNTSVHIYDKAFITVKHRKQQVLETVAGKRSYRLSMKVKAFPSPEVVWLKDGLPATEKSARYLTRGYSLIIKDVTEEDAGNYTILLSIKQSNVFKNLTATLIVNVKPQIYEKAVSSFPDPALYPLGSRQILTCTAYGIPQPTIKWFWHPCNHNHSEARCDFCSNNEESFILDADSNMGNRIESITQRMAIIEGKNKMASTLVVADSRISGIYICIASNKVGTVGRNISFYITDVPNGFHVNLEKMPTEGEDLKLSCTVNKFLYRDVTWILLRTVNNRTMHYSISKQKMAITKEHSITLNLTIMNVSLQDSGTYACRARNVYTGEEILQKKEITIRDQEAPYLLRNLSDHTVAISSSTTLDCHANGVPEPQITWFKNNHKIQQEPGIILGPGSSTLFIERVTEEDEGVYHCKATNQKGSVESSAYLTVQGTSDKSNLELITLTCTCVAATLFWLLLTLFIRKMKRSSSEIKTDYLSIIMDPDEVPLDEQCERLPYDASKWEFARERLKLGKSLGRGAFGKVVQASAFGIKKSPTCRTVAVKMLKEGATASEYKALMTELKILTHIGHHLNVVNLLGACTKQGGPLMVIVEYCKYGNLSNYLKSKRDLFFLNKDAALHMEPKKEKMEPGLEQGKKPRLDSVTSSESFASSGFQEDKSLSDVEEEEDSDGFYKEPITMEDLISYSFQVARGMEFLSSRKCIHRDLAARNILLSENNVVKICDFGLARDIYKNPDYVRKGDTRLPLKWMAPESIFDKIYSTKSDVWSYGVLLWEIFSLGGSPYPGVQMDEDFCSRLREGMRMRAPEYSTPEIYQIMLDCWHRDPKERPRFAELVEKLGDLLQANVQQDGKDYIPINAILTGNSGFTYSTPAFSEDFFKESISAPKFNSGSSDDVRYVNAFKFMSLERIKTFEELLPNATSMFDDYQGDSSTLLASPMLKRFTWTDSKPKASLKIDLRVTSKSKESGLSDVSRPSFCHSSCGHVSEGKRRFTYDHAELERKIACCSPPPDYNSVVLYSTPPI
UniProt Q8WU08, sequence (whole entry, looked up): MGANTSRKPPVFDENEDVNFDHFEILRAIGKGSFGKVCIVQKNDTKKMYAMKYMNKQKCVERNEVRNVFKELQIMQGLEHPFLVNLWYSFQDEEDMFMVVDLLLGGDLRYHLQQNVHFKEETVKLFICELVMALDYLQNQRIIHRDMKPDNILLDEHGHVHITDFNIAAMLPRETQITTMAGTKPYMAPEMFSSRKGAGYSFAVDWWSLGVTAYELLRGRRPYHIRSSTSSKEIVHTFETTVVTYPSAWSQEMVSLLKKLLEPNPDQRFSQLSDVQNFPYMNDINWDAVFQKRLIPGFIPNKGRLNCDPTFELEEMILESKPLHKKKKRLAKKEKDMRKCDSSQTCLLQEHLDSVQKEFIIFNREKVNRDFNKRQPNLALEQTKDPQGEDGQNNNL

Sample 1
Cell line: mouse MPNST tumor cells
Technique: high-content immunofluorescence imaging
Refers to: nuclear SOX9
Concentration: 10 µM
Time: 12 h
Setting: mean of 2 replicates
Reference: DMSO control
Reading: higher = more nuclear SOX9
SMILES | nuclear SOX9 intensity
Cc1ncc([N+](=O)[O-])n1CC(O)CCl (stereo not drawn) | 105 % of DMSO
CCC(=O)O[C@]1(C(=O)CCl)[C@@H](C)C[C@H]2[C@@H]3CCC4=CC(=O)C=C[C@]4(C)[C@@]3(F)[C@@H](O)C[C@@]21C | 75.9 % of DMSO
CC1Cc2ccccc2N1NC(=O)c1ccc(Cl)c(S(N)(=O)=O)c1 (stereo not drawn) | 127 % of DMSO

Sample 2
Target: Histone acetyltransferase KAT6A, both winged helices, GST fusion (KAT6A, Homo sapiens, UniProt Q92794, residues 1-181)
Technique: protein binding microarray
Form: double-stranded DNA, one strand shown
Medium: in vitro
Concentration: not given
Setting: 8-mer, flanks averaged, mean of 2 arrays, mostly near background
Reference: not given
Reading: higher = stronger binding
Residues (chain): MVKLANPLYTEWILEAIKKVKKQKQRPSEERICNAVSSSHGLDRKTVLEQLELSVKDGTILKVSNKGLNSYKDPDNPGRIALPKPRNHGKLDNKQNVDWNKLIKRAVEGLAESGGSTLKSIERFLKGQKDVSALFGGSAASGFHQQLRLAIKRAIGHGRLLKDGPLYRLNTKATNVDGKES
Sequence | E-score
GAAAATCA | 0.0266
CAATTGCA | -0.0833
AATTCAGT | -0.0695
AGTTGGAC | -0.11
ACAGGGCA | -0.196
CGCCCGAA | 0.0556
AAGTCAGA | -0.106
ACGCTGAC | 0.0519

Sample 3
Structure (SMILES): CC(=O)N1CCC(c2ccc(C(=O)NC(=N)N)cc2C(F)(F)F)CC1
Observed: cell-free assay
Technique: competition with immobilised ligand
Concentration: 1 µM
target | remaining binding
FLT1 (Homo sapiens, UniProt P17948) | 100%
CAMK2B (Homo sapiens, UniProt Q13554) | 100%
VRK2 (Homo sapiens, UniProt Q86Y07) | 100%
EGFR (Homo sapiens, UniProt P00533, del747-752/P753S) | 93%
IKBKE (Homo sapiens, UniProt Q14164) | 70%
FLT3 (Homo sapiens, UniProt P36888, D835V) | 92%
PIK3C3 (Homo sapiens, UniProt Q8NEB9) | 100%
Tyrosine-protein kinase ABL1, phosphorylated (ABL1, Homo sapiens, UniProt P00519) | 89%
DCLK2 (Homo sapiens, UniProt Q8N568) | 93%
FLT3 (Homo sapiens, UniProt P36888, ITD) | 91%
Cyclin-dependent kinase 4, with cyclin D3 (CDK4, Homo sapiens, UniProt P11802) | 100%
DDR2 (Homo sapiens, UniProt Q16832) | 100%
EPHB2 (Homo sapiens, UniProt P29323) | 100%
BLK (Homo sapiens, UniProt P51451) | 100%
GAK (Homo sapiens, UniProt O14976) | 100%
MAPKAPK5 (Homo sapiens, UniProt Q8IW41) | 100%
CDK14 (Homo sapiens, UniProt O94921) | 100%
STK32A (Homo sapiens, UniProt Q8WU08) | 100%
PRKG2 (Homo sapiens, UniProt Q13237) | 100%

Sample 4
Organism: Sarcocystis neurona
Observed: parasite growth
Concentration: 10 µM
Time: 96 h
Compound | inhibition
CC(C)NCC(O)COc1ccc(COCCOC(C)C)cc1 (stereo not drawn) | -13.7%
NS(=O)(=O)c1cc2c(cc1Cl)NCNS2(=O)=O | -11.5%
CCn1cc(C(=O)O)c(=O)c2cc(F)c(N3CCNCC3)cc21 | -12.6%

Sample 5
Species: mouse
Medium: microsomes or S9
Concentration: 2 µM
Time: 0.5 h
SMILES | remaining compound [%]
C1=NN(c2ccccc2)C2c3ccccc3OCC12 (stereo not drawn) | 2.26
Cc1nc(C)c(S(=O)(=O)N2C[C@H]3CCc4nnc(-c5ccncc5)n4[C@H]3C2)s1 | 77.4
Cc1cc(C)nc(N2N=C(c3ccccc3)CC2=O)n1 | 79.9

Sample 6
Target: Beta-1 adrenergic receptor (ADRB1, Homo sapiens, UniProt P08588)
UniProt P08588, sequence (whole entry, looked up): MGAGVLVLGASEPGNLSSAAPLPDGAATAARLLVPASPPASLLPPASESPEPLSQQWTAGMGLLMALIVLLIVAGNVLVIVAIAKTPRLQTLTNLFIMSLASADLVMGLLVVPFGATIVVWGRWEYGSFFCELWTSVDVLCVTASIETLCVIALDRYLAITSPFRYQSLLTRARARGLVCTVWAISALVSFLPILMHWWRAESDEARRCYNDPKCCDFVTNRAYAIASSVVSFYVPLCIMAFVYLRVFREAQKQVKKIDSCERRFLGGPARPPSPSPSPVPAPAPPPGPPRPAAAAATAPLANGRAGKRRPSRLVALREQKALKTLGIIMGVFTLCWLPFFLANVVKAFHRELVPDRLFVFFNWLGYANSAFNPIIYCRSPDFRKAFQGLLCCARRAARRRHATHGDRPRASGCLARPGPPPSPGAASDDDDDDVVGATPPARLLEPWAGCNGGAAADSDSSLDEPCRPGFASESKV
Mode: antagonist
SMILES | IC50 [µM]
COc1cc2oc(=O)ccc2c(OC)c1C[C@@H](O)C(C)(C)O | ≥ 100
OC1(c2nc(Nc3cccc(N4CCOCC4)c3)n[nH]2)CCOCC1 | ≥ 100
CN(C)c1cccc(NC(=O)C2=NO[C@@H]3CN(c4cccnc4)C[C@H]23)c1 | ≥ 100

Excerpt of the above (sample 6):
SMILES | IC50 [µM]
OC1(c2nc(Nc3cccc(N4CCOCC4)c3)n[nH]2)CCOCC1 | ≥ 100
CN(C)c1cccc(NC(=O)C2=NO[C@@H]3CN(c4cccnc4)C[C@H]23)c1 | ≥ 100
COc1cc2oc(=O)ccc2c(OC)c1C[C@@H](O)C(C)(C)O | ≥ 100
